Experimental data collected from several papers.
Numbered parts are unrelated; each lists some results of a single study. “And” joins repeats or separate records; there may be more than shown.

Block 1 — cell line: sample D normal colon organoid; technique: CellTiter-Glo; tested at: 1 µM; notes: mean of replicates; reference: DMSO
Compound	viability [%]
CC(=O)Nc1c(C(C)=O)c(=O)n(C)c2nc(-c3ccc(Cl)cc3Cl)c(-c3ccc(Cl)cc3)cc12	114
Cc1cc(NC(=O)c2cccc(S(F)(F)(F)(F)F)c2)cc(-n2ccn3nc(-c4cccnc4)cc23)c1	98.5
Cn1nc(C(=O)NCc2ccc(C(=O)O)cc2)cc1-c1ccc2[nH]ccc2c1	131
O=C1NC(c2ccccn2)Sc2ccccc21 (stereo not drawn)	105
O=C(O)c1cc(-c2ccc(C3CCNCC3)cc2)c2ccc(-c3ccc(C(F)(F)F)cc3)cc2c1	120
O=C(NC[C@@H]1[C@H]2CN(C(=O)OCc3cc(C(F)(F)F)cc(C(F)(F)F)c3)C[C@@H]12)c1ccc2[nH]nnc2c1	91.3
CO[C@@H](C)c1c(Nc2ccc([C@@H](N(C)C(=O)C3CCS(=O)(=O)CC3)C(F)(F)F)cc2)cnc2cc(Cl)nn12	107
Cn1cc(Cl)c2c(Oc3c(F)cc(Nc4cc(Cl)nc(N)n4)cc3F)ccnc21	101

Block 2 — observed: enzyme activity; mode: inhibitor; tested at: 10 µM
Target: Calcium/calmodulin-dependent protein kinase type II subunit alpha (CAMK2A, Homo sapiens, UniProt Q9UQM7)
Sequence of UniProt Q9UQM7 (whole entry, looked up): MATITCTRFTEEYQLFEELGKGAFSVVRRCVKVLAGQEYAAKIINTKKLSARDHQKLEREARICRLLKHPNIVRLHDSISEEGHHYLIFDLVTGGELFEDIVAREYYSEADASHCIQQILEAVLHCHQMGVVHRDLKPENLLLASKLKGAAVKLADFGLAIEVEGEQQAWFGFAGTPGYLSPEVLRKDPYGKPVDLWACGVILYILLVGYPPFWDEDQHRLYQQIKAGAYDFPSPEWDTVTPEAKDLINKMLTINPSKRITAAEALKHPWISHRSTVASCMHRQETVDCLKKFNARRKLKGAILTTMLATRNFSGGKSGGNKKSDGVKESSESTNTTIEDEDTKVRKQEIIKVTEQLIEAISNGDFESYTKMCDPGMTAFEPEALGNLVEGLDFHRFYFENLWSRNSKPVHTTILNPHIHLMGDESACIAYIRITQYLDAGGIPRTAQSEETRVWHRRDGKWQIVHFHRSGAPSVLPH
Compound	inhibition
CCCCCCCC(=O)CCc1ccc(O)c(OC)c1	-18%
COc1ccc2ccc(=O)oc2c1C[C@@H]1OC1(C)C	49%
O=c1ccoc2cc(O)ccc12	-27%
C[C@@H]1O[C@@H](O[C@H]2[C@H](O[C@H]3CC[C@@]4(C)[C@@H](CC[C@]5(C)[C@@H]4CC=C4[C@@H]6CC(C)(C)CC[C@]6(C(=O)O[C@@H]6O[C@H](CO[C@@H]7O[C@H](CO)[C@@H](O)[C@H](O)[C@H]7O)[C@@H](O)[C@H](O)[C@H]6O)CC[C@]45C)[C@]3(C)CO)OC[C@H](O)[C@@H]2O)[C@H](O)[C@H](O)[C@H]1O	14%
O=c1ccc2ccc(OCCCCN3CCN(c4cccc5sccc45)CC3)cc2[nH]1	-16%
CC(C)C[C@@](O)(CC(=O)OCc1ccc(O[C@@H]2O[C@H](CO)[C@@H](O)[C@H](O)[C@H]2O)cc1)C(=O)OCc1ccc(O[C@@H]2O[C@H](CO)[C@@H](O)[C@H](O)[C@H]2O)cc1	-16%
NC(=O)c1[nH]cnc1N	-20%
C[C@H](O)C(=O)Nc1c(I)c(C(=O)NC(CO)CO)c(I)c(C(=O)NC(CO)CO)c1I	-15%

Block 3 — observed: enzyme activity; mode: inhibitor; tested at: 0.5 µM; reference: control
Target: Cyclin-dependent kinase 4, with cyclin D3 (CDK4, Homo sapiens, UniProt P11802)
Sequence of UniProt P11802 (whole entry, looked up): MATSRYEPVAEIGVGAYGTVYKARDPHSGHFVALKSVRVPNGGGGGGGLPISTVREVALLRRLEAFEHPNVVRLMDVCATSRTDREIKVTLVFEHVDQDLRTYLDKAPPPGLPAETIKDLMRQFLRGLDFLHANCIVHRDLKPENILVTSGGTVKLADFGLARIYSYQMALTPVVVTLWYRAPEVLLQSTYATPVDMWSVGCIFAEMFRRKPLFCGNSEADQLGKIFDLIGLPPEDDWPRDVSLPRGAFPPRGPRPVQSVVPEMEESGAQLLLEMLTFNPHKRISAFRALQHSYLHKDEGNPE
SMILES	remaining activity [%]
Nc1[nH]nc2nc3ccccc3nc12	94.8
CNC(=O)c1cc(Oc2ccc(NC(=O)Nc3ccc(Cl)c(C(F)(F)F)c3)cc2)ccn1	114
Cn1c2ccccc2c2c3c(c4c5ccccc5n(CCC#N)c4c21)CNC3=O	44.5
COc1ccc(C(=O)Nc2sc3c(c2C(N)=O)CCCC3)cc1OC	98.8
Cc1ccc(Nc2nccc(N(C)c3ccc4c(C)n(C)nc4c3)n2)cc1S(N)(=O)=O	96
Nc1ccc2ncnc(NCCc3ccc(Oc4ccccc4)cc3)c2c1	109
N#CC(C#N)=C(N)/C(C#N)=C/c1ccc(O)cc1	97.1
O=C(O)c1ccc2c3c1cccc3c(=O)n1c3ccccc3nc21	102
Nc1ncnc2n[nH]c(Nc3ccc(F)cc3)c12	111
Cc1nc(-c2ccccc2)c(-c2ccncc2)o1	107
CN(C)c1ccc(C=C2C(=O)Nc3ccccc32)cc1	98.9
O=c1c2ccccc2[nH]c(=S)n1CCN1CCC(=C(c2ccc(F)cc2)c2ccc(F)cc2)CC1	99
Cc1ccc(NC(=O)c2ccc(CN3CCN(C)CC3)cc2)cc1Nc1nc(-c2cccnc2)cs1	115
Oc1ccc(-c2nc(-c3ccncc3)c(-c3ccc(F)cc3)[nH]2)cc1	104
Cn1sc(=O)n(Cc2ccccc2)c1=O	114

Block 4 — Compound: C=CCc1ccc(O)c(-c2ccc(O)c(CC=C)c2)c1; observed: chloride current; technique: whole-cell patch clamp
Target: Anoctamin-1 (ANO1, Homo sapiens, UniProt Q5XXA6, del476-501)
Sequence of UniProt Q5XXA6 (whole entry, unmodified, looked up): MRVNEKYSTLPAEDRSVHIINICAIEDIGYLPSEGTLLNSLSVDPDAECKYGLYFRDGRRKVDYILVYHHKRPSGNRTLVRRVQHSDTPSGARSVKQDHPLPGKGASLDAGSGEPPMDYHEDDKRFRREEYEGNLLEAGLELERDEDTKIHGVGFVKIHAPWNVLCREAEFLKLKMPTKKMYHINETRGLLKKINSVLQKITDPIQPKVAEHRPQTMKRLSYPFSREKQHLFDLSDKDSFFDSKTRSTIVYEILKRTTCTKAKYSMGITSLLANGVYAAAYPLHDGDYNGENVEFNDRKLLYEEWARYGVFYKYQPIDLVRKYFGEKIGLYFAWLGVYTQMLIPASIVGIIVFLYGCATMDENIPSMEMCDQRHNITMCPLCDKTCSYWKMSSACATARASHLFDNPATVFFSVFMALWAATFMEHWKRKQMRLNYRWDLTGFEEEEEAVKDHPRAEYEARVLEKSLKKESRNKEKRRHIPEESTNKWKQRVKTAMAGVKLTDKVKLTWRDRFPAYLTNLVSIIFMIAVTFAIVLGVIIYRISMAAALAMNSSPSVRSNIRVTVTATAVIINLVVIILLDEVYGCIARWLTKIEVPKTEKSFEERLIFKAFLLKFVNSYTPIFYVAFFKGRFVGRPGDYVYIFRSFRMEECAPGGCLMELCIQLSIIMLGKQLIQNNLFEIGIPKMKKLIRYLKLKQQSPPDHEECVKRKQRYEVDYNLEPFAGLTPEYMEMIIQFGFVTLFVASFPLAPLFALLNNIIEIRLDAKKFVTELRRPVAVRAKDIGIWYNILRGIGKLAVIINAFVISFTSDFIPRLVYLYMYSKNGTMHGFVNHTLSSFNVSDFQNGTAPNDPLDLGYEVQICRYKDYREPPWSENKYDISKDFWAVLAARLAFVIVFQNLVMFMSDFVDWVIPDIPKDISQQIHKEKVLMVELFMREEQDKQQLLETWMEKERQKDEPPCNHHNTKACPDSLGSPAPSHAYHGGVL
tested at	notes	with	normalised current
3 µM	60 mV, 300 nM free Ca2+	–	0.262 and 0.275
3 µM	20 mV, 300 nM free Ca2+	–	0.0521 and 0.0547
100 µM	60 mV, 300 nM free Ca2+	–	0.0303 and 0.0318
3 µM	20 mV, 300 nM free Ca2+	honokiol and magnolol 10 µM	0.0264
3 µM	0 mV, 300 nM free Ca2+	–	-0.0006
100 µM	40 mV, 300 nM free Ca2+	–	0.015 and 0.0157
1 µM	40 mV, 300 nM free Ca2+	honokiol and magnolol 10 µM	0.15
1 µM	-20 mV, 300 nM free Ca2+	honokiol and magnolol 10 µM	-0.0423

A few entries again (block 2):
Compound	inhibition
O=c1ccoc2cc(O)ccc12	-27%
C[C@@H]1O[C@@H](O[C@H]2[C@H](O[C@H]3CC[C@@]4(C)[C@@H](CC[C@]5(C)[C@@H]4CC=C4[C@@H]6CC(C)(C)CC[C@]6(C(=O)O[C@@H]6O[C@H](CO[C@@H]7O[C@H](CO)[C@@H](O)[C@H](O)[C@H]7O)[C@@H](O)[C@H](O)[C@H]6O)CC[C@]45C)[C@]3(C)CO)OC[C@H](O)[C@@H]2O)[C@H](O)[C@H](O)[C@H]1O	14%
O=c1ccc2ccc(OCCCCN3CCN(c4cccc5sccc45)CC3)cc2[nH]1	-16%
CC(C)C[C@@](O)(CC(=O)OCc1ccc(O[C@@H]2O[C@H](CO)[C@@H](O)[C@H](O)[C@H]2O)cc1)C(=O)OCc1ccc(O[C@@H]2O[C@H](CO)[C@@H](O)[C@H](O)[C@H]2O)cc1	-16%
NC(=O)c1[nH]cnc1N	-20%
C[C@H](O)C(=O)Nc1c(I)c(C(=O)NC(CO)CO)c(I)c(C(=O)NC(CO)CO)c1I	-15%
